Measurements pooled from the literature.
Parts stem from different laboratories: compare values within a part only.

Series 1 — method: universal PBM; molecule type: double-stranded DNA, one strand shown; sample: in vitro; tested at: 600 nM; direction: higher = stronger binding
Target: Sal-like protein 4, full length isoform A (SALL4, Homo sapiens, UniProt Q9UJQ4, residues 1-1053)
UniProt Q9UJQ4, sequence (whole entry, looked up): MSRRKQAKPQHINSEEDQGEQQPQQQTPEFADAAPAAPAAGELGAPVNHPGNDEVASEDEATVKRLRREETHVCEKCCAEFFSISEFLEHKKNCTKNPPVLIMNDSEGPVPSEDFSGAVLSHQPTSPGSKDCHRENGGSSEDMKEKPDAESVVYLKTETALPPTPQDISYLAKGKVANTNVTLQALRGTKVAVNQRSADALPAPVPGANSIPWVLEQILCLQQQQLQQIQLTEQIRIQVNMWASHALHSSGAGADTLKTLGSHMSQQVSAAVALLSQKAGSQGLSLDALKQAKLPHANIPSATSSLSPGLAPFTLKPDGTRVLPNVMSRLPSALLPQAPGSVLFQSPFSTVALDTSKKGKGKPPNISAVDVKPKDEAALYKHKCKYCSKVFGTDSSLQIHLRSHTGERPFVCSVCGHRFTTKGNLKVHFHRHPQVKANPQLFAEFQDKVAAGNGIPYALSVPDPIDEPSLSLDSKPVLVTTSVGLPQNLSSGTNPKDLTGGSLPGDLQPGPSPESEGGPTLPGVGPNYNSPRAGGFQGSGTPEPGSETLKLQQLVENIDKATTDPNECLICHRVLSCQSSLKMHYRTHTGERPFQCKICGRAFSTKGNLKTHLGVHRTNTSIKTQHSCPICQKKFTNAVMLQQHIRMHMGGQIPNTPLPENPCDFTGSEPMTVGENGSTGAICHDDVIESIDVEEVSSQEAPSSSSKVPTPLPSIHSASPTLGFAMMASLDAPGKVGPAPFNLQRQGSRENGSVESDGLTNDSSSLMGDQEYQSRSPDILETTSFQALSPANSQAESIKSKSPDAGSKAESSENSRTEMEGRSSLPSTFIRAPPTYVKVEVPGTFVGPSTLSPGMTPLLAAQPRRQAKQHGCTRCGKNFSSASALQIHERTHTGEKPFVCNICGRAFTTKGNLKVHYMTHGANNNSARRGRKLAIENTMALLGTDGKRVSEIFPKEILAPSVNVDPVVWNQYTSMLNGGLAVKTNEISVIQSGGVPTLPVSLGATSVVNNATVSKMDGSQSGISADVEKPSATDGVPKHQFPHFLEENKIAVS
Setting: 8-mer, flanks averaged, mean of replicates
The E-score of `CTATAAAG` is reported as 0.227.
For `GAAATCTC`, the E-score was -0.0291.
`AGGTCACT` has an E-score of -0.187.
The E-score of `AGTCGTAA` is reported as 0.179.
The E-score of `GGCGGGGA` is reported as 0.0202.
For `GCAGAGCA`, the E-score was -0.1.
The E-score of `ACAGGGCA` is reported as -0.0219.
The E-score of `GTTATGAA` is reported as 0.443.
`CCTTAAAA` gave an E-score of 0.234.
For `AATACCTG`, the E-score was 0.122.
`TAATGGAA` has an E-score of 0.209.
The E-score of `GAAAGCTC` is reported as -0.257.
For `ATTAATTA`, the E-score was 0.399.
`CAAGTGGC` gave an E-score of -0.0167.
`CAACGTCG` has an E-score of -0.215.
`GGTCTAAA` gave an E-score of 0.0966.
`CGAATGCA` has an E-score of 0.115.
For `CCGGACCA`, the E-score was -0.267.
For `CCACCCCC`, the E-score was -0.303.
`AGCTTTTC` has an E-score of 0.00271.
`CAAGAAAA` has an E-score of 0.224.
The E-score of `CAATCGGA` is reported as -0.133.

Series 2 — method: protein binding microarray; molecule type: double-stranded DNA, one strand shown; sample: in vitro; tested at: not given; reference: not given; direction: higher = stronger binding
Target: Histone acetyltransferase KAT6A, both winged helices, GST fusion (KAT6A, Homo sapiens, UniProt Q92794, residues 1-181)
Setting: 8-mer, flanks averaged, mean of 2 arrays, mostly near background
Target sequence (chain): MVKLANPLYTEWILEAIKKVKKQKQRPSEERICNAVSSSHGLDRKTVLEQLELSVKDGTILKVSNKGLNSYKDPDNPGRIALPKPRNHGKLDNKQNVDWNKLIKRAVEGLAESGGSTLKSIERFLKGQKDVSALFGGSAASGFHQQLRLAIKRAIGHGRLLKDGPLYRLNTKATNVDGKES
For `AAGATCGG`, the E-score was 0.151.
`AGCTAGTC` has an E-score of -0.0929.
The E-score of `ACGAAGAT` is reported as -0.0374.
`AGACACCT` has an E-score of 0.00346.
For `ATTTGAAG`, the E-score was -0.0132.
For `CACTTCAA`, the E-score was -0.055.
With `CTGGAGTC` the E-score was -0.249.
`GCCAGGCC` gave an E-score of -0.0644.
`AGGATAGC` gave an E-score of -0.00398.
With `GCGGGGCA` the E-score was 0.128.
`CATGCGGA` gave an E-score of 0.143.
`ACTAGAAC` has an E-score of -0.0331.
`AAAAAAAC` has an E-score of 0.0441.
For `CTGAGAGA`, the E-score was -0.166.
With `CGCGCGCA` the E-score was 0.399.
The E-score of `ATCCGGCG` is reported as 0.28.
For `GACTTGCC`, the E-score was -0.0173.
With `CATCAAGC` the E-score was -0.0026.
With `CTCGACAA` the E-score was -0.13.
`GGTGGTTA` gave an E-score of 0.008.
For `AGTCGTGA`, the E-score was -0.181.
With `CCAATTAC` the E-score was -0.0864.
`GGAAGGCC` has an E-score of -0.0495.
The E-score of `AAATCGGC` is reported as 0.241.
`CCGCAGGA` has an E-score of 0.00534.

Series 3 — method: protein-binding microarray; molecule type: double-stranded DNA, one strand shown; sample: in vitro; tested at: 2200 nM top; setting: 60-bp whole probe; added: salmon DNA 0.4 mg/ml; reference: random background probes; direction: higher = stronger binding; constant ends, left off below: GCCTAGCAC … GTCTTGATTCGCTTGACGCTGCTG
Target: Interferon regulatory factor 7, full length, phosphomimetic (IRF7, Homo sapiens, UniProt Q92985, residues 1-503, S471D/S472D/S475D/S476D/S477D/S483D/S484D/S487D)
UniProt Q92985, sequence (whole entry, unmodified, looked up): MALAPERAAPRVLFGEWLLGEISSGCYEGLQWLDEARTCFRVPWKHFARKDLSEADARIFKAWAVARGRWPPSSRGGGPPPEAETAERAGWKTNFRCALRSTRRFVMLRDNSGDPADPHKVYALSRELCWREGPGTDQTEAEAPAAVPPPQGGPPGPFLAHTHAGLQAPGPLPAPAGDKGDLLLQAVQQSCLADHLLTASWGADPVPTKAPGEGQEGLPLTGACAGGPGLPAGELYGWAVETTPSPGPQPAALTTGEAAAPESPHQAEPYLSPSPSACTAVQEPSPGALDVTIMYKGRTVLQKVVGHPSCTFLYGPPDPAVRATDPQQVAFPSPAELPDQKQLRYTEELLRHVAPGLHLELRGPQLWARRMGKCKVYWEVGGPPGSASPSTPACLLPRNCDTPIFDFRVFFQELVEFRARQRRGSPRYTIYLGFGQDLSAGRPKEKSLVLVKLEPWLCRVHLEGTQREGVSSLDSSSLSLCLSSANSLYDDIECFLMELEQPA
`TTAGGACTGGACTTTCGGGTAGTGCTA` — result for “fitted relative affinity”: 3.13 z-score.
`GAGGGTTTCGGTATCGGGACGTGCTAG`: “fitted relative affinity” 5.19 z-score.
For `TTAGGTATCGAAACTGGGTTAGTGCTA`, “fitted relative affinity” read 0.777 z-score.
Under “fitted relative affinity”, `TCAATCCCCAGTCTCATACTGTGCTAG` is recorded as 1.04 z-score.
Under “fitted relative affinity”, `GTCCCTGAATGAAAACATCATGTGCTA` is recorded as 0.766 z-score.
`GACGGTAGCGGGACTGGGGACGTGCTA`: “fitted relative affinity” -0.957 z-score.
For `TCCATTATTGCTTCCTCTTTGTGCTAG`, “fitted relative affinity” read 2.77 z-score.
Under “fitted relative affinity”, `TTAGGTTTCGGATCCGGTTAGTGCTAG` is recorded as 5.91 z-score.
Under “fitted relative affinity”, `TCATTTCCCACTTTCACACTGTGCTAG` is recorded as 5.56 z-score.
For `TTAGATTCCGGTTTCGATTAGTGCTAG`, “fitted relative affinity” read 7.03 z-score.
For `TCCTCTTTCACTGCTCCCCACGTGCTA`, “fitted relative affinity” read 3.19 z-score.
For `ATGTGTTTACATATGTTTTTGTGCTAG`, “fitted relative affinity” read 1.4 z-score.
For `TTGTAGATGCCTTTCTCTTGGTGCTAG`, “fitted relative affinity” read 1.17 z-score.
`TGAGGACTGGGGTTTCGGTTAGTGCTA`: “fitted relative affinity” 2.43 z-score.
For `CTTTACTTCACTCTCTGCTTGTGCTAG`, “fitted relative affinity” read 1.78 z-score.
For `GACGGTTTCGACTTTAGGGACGTGCTA`, “fitted relative affinity” read 5.07 z-score.
For `TCAGCCATCAATATCTGACTGTGCTAG`, “fitted relative affinity” read 0.33 z-score.
`TTAGATATCAGTATAGATTAGTGCTAG` — result for “fitted relative affinity”: -0.136 z-score.
Under “fitted relative affinity”, `GACGGACCGGGGACTGGGGACGTGCTA` is recorded as -0.841 z-score.

Series 4 — method: RNA Bind-n-Seq; molecule type: RNA; sample: in vitro; tested at: 365 nM; reference: no-protein control; direction: higher = stronger binding
Target: RNA binding protein fox-1 homolog 2, RRM domain, GST-SBP tag (RBFOX2, Homo sapiens, UniProt O43251-10, residues 100-194)
Setting: natural RNA segment, single round, ends assumed
Construct (chain): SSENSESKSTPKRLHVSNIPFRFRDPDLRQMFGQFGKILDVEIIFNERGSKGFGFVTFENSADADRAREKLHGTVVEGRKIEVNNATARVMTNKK
`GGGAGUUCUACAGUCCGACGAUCGGACCCCAGGCUCUGCUCUGCCCUGCCCUGCACCCCCCUCGUCAGAAGUACAUGAGGGGCGCAGAGAUGAGCACACAGCUUUGGGCACGGUCCAGGGCAAACUGAAAUGUUGGAAUUCUCGGGUGCCAA` — result for “RBNS enrichment (R)”: 0.332.
`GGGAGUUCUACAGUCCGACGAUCAAACAUCCGACAGUUUGAAUUUAUAGUGUUGAUGGAAGAAAUCAUUUUUAAUGUGUACUGUAAAACUUGAAAUACUCAGGAGCUGAGUGAAUAUGUUUGUUGCUACUUACUGGAAUUCUCGGGUGCCAA` — result for “RBNS enrichment (R)”: 0.831.
`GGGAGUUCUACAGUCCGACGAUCAAGCAAUUUUCACGCACAGUAGAUUCAACUUGUUUUUUGUGCUGUUUUUUGAUUUUUGCUGACUUAAAAAGGAUUAAUUUGGGCAGACAUUAUAAAAAGGAAAGGGUUAAUGGAAUUCUCGGGUGCCAA`: “RBNS enrichment (R)” 0.881.
Under “RBNS enrichment (R)”, `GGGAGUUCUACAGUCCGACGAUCCUCUUUCUUACUGCUGGAAGUCACAGAAUUCAUAUUGCUGCCCGGGUUGGUGUGGCCACCUUUCCCUUUGUCCAAGACUCCACAUGGAAGGCAUUUGAGCUCGACCUCCGUGGAAUUCUCGGGUGCCAA` is recorded as 0.327.
`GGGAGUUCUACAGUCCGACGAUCGUUGUAUUUAGAAAUAUCUUAUGUAAUGUGCUUUGUAAAAGAAGAUGAAUUAAAAUGAAAUUUUGUGAAAAUAUUUUUGUUCAAAGUUGUCACAGUCCAAGAGGAAUGGUUGGAAUUCUCGGGUGCCAA`: “RBNS enrichment (R)” 1.26.
Under “RBNS enrichment (R)”, `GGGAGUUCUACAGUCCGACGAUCGCUGAGCCAGGAGGAUCGCUUGAGCCCAGGAGGCGGAGGUUGCAGUGAGCUGAGAUGGCACCACUUAUUGCACUCCAGCCCGGGCGACAGAGCGAGACUCCAUCUACCAGUGGAAUUCUCGGGUGCCAA` is recorded as 0.526.
`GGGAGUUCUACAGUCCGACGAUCAAAAGCAAUUACUACAAAUGGAUGACACAUUUAAUGAACACAAUUUUAUUUUUUUUCUGUAACUGUGCUUGUUGAAUGUCAAUCAUAUUUAAAGGGAAUGACUUUGAAGUUGGAAUUCUCGGGUGCCAA`: “RBNS enrichment (R)” 0.668.
For `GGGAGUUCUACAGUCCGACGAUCCCCUGCGAUUGUGCCACCCUGUGAUUGUAUAGCGUGUUGUUUGUUCCAGUAAGCAGGCAGGCCCAGAGACUGCUUUCUCAGCACCGCACAGAUCUCAGUGGGUCACAUAAUGGAAUUCUCGGGUGCCAA`, “RBNS enrichment (R)” read 0.637.

For quick reference, copied from above (series 3):
Under “fitted relative affinity”, `TCAATCCCCAGTCTCATACTGTGCTAG` is recorded as 1.04 z-score.
Under “fitted relative affinity”, `GTCCCTGAATGAAAACATCATGTGCTA` is recorded as 0.766 z-score.
`GACGGTAGCGGGACTGGGGACGTGCTA`: “fitted relative affinity” -0.957 z-score.
For `TCCATTATTGCTTCCTCTTTGTGCTAG`, “fitted relative affinity” read 2.77 z-score.
